# Published values gathered from unrelated publications.
# ± marks the error that the study gave.
# Cell line: MCF7
Structure (SMILES),effect on,method,time,IC50 [µM]
COc1ccc(C(c2c(C)nn(-c3ccccc3)c2O)c2c(C)nn(-c3ccccc3)c2O)cc1,cell growth or viability,MTT,48 h,12.5
Cc1cc(C)n(C(C(=O)OC(C)C)n2nc(C)cc2C)n1.F[P-](F)(F)(F)(F)F.[Cu+].c1ccc(P(c2ccccc2)c2ccccc2)cc1,cell growth or viability,MTT,72 h,7.2
C=CC[P](c1ccccc1)(c1ccccc1)[Pt]([S]c1ccccn1)([S]c1ccccn1)[P](CC=C)(c1ccccc1)c1ccccc1,cell growth or viability,MTT,,4.8
CC(C)C[C@H](NC(=O)[C@H](C)NC(=O)[C@H](CCCCN)NC(=O)[C@H](C)NC(=O)[C@H](C)NC(=O)[C@@H]1CSCc2ccccc2CSC[C@H](NC(=O)[C@H](CCCCN)NC(=O)[C@H](Cc2ccccc2)NC(=O)CN)C(=O)N[C@@H](CC(C)C)C(=O)N[C@@H](CC(C)C)C(=O)N[C@@H](CCCCN)C(=O)N1)C(=O)N[C@H](C(=O)N[C@@H](CCCCN)C(=O)N[C@H](C(=O)N[C@H](C(=O)N[C@@H](CC(C)C)C(=O)N[C@@H](Cc1ccccc1)C(N)=O)C(C)C)[C@@H](C)O)C(C)C,cell growth or viability,CCK-8,,12
O=C1CC2(C1)C(=O)[O][Pt]1([Cl])([O]C(=O)C(F)(F)F)([NH][C@@H]3CCCC[C@H]3[NH]1)[O]C2=O,cell growth or viability,MTT,,22.2
CCc1ccc(C(c2c(C)nn(-c3ccccc3)c2O)c2c(C)nn(-c3ccccc3)c2O)cc1,cell growth or viability,MTT,48 h,38.4
CC[C@H](C)[C@@H]1NC(=O)[C@H](CCCCN)NC(=O)[C@H](CCCCN)NC(=O)[C@H](C)NC(=O)[C@H](C(C)C)NC(=O)[C@H](C)NC(=O)[C@H](CC(C)C)NC(=O)[C@H](CC(C)C)NC(=O)[C@H](C)NC(=O)[C@H](CCCCN)NC(=O)[C@H](CC(C)C)NC(=O)[C@H](CC(N)=O)NC(=O)[C@H](CC(C)C)NC(=O)[C@@H](N)CSSC[C@@H](C(N)=O)NC(=O)[C@H](CC(C)C)NC1=O,cell growth or viability,MTT,,13.7
C/C1=C\CC[C@@]2(C)O[C@H]2[C@H]2OC(=O)C(C)[C@@H]2CC1 (some centres unmarked),cell growth or viability,resazurin,,> 500
CC[C@H](C)[C@@H]([C@@H](CC(=O)N1CCC[C@H]1[C@H](OC)[C@@H](C)C(=O)N[C@H](C)[C@@H](O)c1ccccc1)OC)N(C)C(=O)[C@@H](NC(=O)[C@H](C(C)C)N(C)C(=O)OCc1ccc(NC(=O)[C@H](CCCNC(N)=O)NC(=O)[C@@H](NC(=O)CCCc2cn(CC(=O)NCCCC[C@H]3NC(=O)[C@H](CCCCN)NC(=O)[C@H](CCCNC(N)=O)NC(=O)[C@H](Cc4ccc(O)cc4)NC(=O)[C@@H](NC(=O)[C@H](Cc4ccc5ccccc5c4)NC(=O)[C@H](CCCNC(=N)N)NC(=O)[C@@H](N)CCCNC(=N)N)CSSC[C@@H](C(=O)N[C@@H](CCCNC(=N)N)C(N)=O)NC(=O)[C@H](CCCNC(N)=O)NC(=O)[C@H](CCCNC(=N)N)NC(=O)[C@H](Cc4ccc(O)cc4)NC(=O)[C@@H]4CCCN4C3=O)nn2)C(C)C)cc1)C(C)C,cell growth or viability,CCK-8,48 h,3.98
CC(C)=CCC[C@@](C)(O)[C@H]1CC[C@]2(C)[C@@H]1CC[C@@H]1[C@@]3(C)CCC(=O)C(C)(C)[C@@H]3CC[C@]12C,cell growth or viability,SRB,,29.2
COC(=O)C1CN1S(=O)(=O)c1ccc(N)cc1 (centres unmarked),cell growth or viability,MTT,48 h,137
CC(C)[C@H](NC(=O)[C@H](CCCNC(=N)N)NC(=O)[C@H](CCC(=O)O)NC(=O)[C@H](CCCNC(=N)N)NC(=O)[C@@H](NC(=O)[C@H](CCCNC(=N)N)NC(=O)[C@@H](NC(=O)[C@@H]1CCCN1C(=O)[C@H]1CCCN1C(=O)[C@@H](NC(=O)[C@H](CCCNC(=N)N)NC(=O)[C@@H](NC(=O)[C@H](CCCNC(=N)N)NC(=O)[C@@H](NC(=O)[C@H](CCCNC(=N)N)NC(=O)[C@@H](NC(=O)[C@@H](N)CCCCN)C(C)C)C(C)C)C(C)C)C(C)C)[C@@H](C)O)C(C)C)C(=O)N[C@@H](CCCCN)C(N)=O,,,,> 1000
C=CC[P](c1ccccc1)(c1ccccc1)[Pt]([S]c1nc2ccccc2[nH]1)([S]c1nc2ccccc2[nH]1)[P](CC=C)(c1ccccc1)c1ccccc1,cell growth or viability,MTT,,17.4
CC(=O)O[C@H]1C(=O)[C@@]2(C)[C@H]([C@H](OC(=O)c3ccccc3)[C@]3(O)C[C@H](OC(=O)[C@H](OC(=O)CCC(=O)NCC(=O)NCC(=O)N[C@@H](CCC(=O)O)C(=O)N4C[C@H](O)C[C@H]4C(=O)NCC(=O)N[C@@H](CCC(=O)O)C(=O)N4C[C@H](O)C[C@H]4C(=O)NCC(=O)N[C@@H](CCC(=O)O)C(=O)N4C[C@H](O)C[C@H]4C(=O)NCC(=O)N[C@@H](CCC(=O)O)C(=O)N4C[C@H](O)C[C@H]4C(=O)NCC(=O)N[C@@H](CCC(=O)O)C(=O)N4C[C@H](O)C[C@H]4C(=O)NCC(=O)N4CCC[C@H]4C(=O)N[C@@H](CCCNC(=N)N)C(=O)NCC(=O)N4CCC[C@H]4C(=O)N[C@@H](CCCNC(=N)N)C(=O)NCC(=O)N4CCC[C@H]4C(=O)N[C@@H](CCCNC(=N)N)C(=O)NCC(=O)N4CCC[C@H]4C(=O)N[C@@H](CCCNC(=N)N)C(=O)NCC(=O)N4CCC[C@H]4C(=O)N[C@@H](CCCNC(=N)N)C(=O)NCC(=O)N[C@@H](CCCNC(=N)N)C(=O)N[C@@H](CCCNC(=N)N)C(=O)NCC(=O)N[C@@H](CCCNC(=N)N)C(=O)N[C@@H](CCCNC(=N)N)C(=O)NCC(N)=O)[C@@H](NC(=O)c4ccccc4)c4ccccc4)C(C)=C1C3(C)C)[C@]1(OC(C)=O)CO[C@@H]1C[C@@H]2O,cell growth or viability,ATP luminescence,,0.198
C[C@H]1O[C@@H](O[C@H]2CC[C@@]3(C)[C@H](CC[C@@H]4[C@@H]3C[C@@H](O)[C@]3(C)[C@@H](C5=CC(=O)OC5)CC[C@]43O)C2)C[C@H](O)[C@@H]1O[C@@H]1O[C@H](CO)[C@@H](O)[C@H](O)[C@H]1O,cell growth or viability,MTT,48 h,0.38
CC(N)C(O)CCCCCCCCCCCCCCC(=O)CCCCCCCC(O)C(C)N (centres unmarked),cell growth or viability,resazurin,96 h,34.9
c1ccc(-c2cc(-c3ccc4ccccc4n3)c3c4nncn4c4nncn4c3n2)cc1,cell growth or viability,MTT,48 h,7.8
[Cl][Au].[Se]=c1n(C2CCCCC2)ccn1C1CCCCC1,cell growth or viability,MTT,72 h,3.2
CC1OC(OC2CCC3(C)C(CCC4C3CCC3(C)C(C5=CC(=O)OC5)CCC43O)C2)C(O)C(O)C1OC1OC(CO)C(O)C(O)C1O (centres unmarked),cell growth or viability,MTT,48 h,0.12
C1CCN(C2CCNCC2)CC1.CCCC(CCC)C(=O)[O][Pt]([OH])([Cl])[Cl].CCCCN,cytotoxicity,,72 h,8.8 ± 1.48
Cc1nn(-c2ccccc2)c(O)c1C(c1ccccc1O)c1c(C)nn(-c2ccccc2)c1O,cell growth or viability,MTT,48 h,30.2
[N-]=[N+]=NCCCN1C(=O)c2cccc3cccc(c23)C1=O,cell growth or viability,MTT,24 h,> 100
CC(C)C[C@H](NC(=O)[C@H](C)NC(=O)[C@H](CCCCN)NC(=O)[C@H](CC(C)C)NC(=O)[C@H](C)NC(=O)[C@H](CC(C)C)NC(=O)[C@H](CCCCN)NC(=O)[C@H](CC(C)C)NC(=O)[C@H](C)NC(=O)[C@H](CC(C)C)NC(=O)[C@@H](N)CCCCN)C(=O)N[C@@H](CCCCN)C(=O)N[C@@H](C)C(=O)N[C@@H](C)C(=O)N[C@@H](CC(C)C)C(=O)N[C@@H](CCCCN)C(=O)N[C@@H](CC(C)C)C(=O)N[C@@H](C)C(N)=O,cytotoxicity,,,1.8
Cc1cc(C)c(N2CCN(c3c(C)cc(C)cc3C)C2=[Se])c(C)c1.[Cl][Ag],cell growth or viability,MTT,72 h,2.6
Cc1nn(-c2ccccc2)c(O)c1C(c1ccc(N(C)C)cc1)c1c(C)nn(-c2ccccc2)c1O,cell growth or viability,MTT,48 h,32.6
CC(C)C[C@H](NC(=O)[C@H](CC(C)C)NC(=O)[C@H](CC(=O)O)NC(=O)[C@H](CCCCN)NC(=O)[C@H](Cc1ccccc1)NC(=O)CN)C(=O)N[C@@H](CCCCN)C(=O)N[C@H]1CSCc2ccc(cc2)CSC[C@@H](C(=O)N[C@@H](CC(C)C)C(=O)N[C@H](C(=O)N[C@@H](CCCCN)C(=O)N[C@H](C(=O)N[C@H](C(=O)N[C@@H](CC(C)C)C(=O)N[C@@H](Cc2ccccc2)C(N)=O)C(C)C)[C@@H](C)O)C(C)C)NC(=O)[C@H](CCCCN)NC(=O)[C@H](C)NC(=O)[C@H](C)NC1=O,cell growth or viability,CCK-8,,9.27
CC(=O)O[C@H]1C[C@H](O[C@H]2[C@@H](O)C[C@H](O[C@H]3[C@@H](O)C[C@H](O[C@H]4CC[C@@]5(C)[C@H](CC[C@@H]6[C@@H]5CC[C@]5(C)[C@@H](C7=CC(=O)OC7)[C@@H](O)C[C@]65O)C4)O[C@@H]3C)O[C@@H]2C)O[C@H](C)[C@H]1O[C@@H]1O[C@H](CO)[C@@H](O)[C@H](O)[C@H]1O,cell growth or viability,MTT,48 h,0.44
CCCCc1ccc(S(=O)(=O)N2CC2C(=O)OC)cc1 (centres unmarked),cell growth or viability,MTT,48 h,36
CC(C)C[C@H](NC(=O)[C@H](CC(C)C)NC(=O)[C@H](CC(=O)O)NC(=O)[C@H](CCCCN)NC(=O)[C@H](Cc1ccccc1)NC(=O)CN)C(=O)N[C@@H](CCCCN)C(=O)N[C@H]1CSCc2ccccc2CSC[C@@H](C(=O)N[C@@H](CC(C)C)C(=O)N[C@H](C(=O)N[C@@H](CCCCN)C(=O)N[C@H](C(=O)N[C@H](C(=O)N[C@@H](CC(C)C)C(=O)N[C@@H](Cc2ccccc2)C(N)=O)C(C)C)[C@@H](C)O)C(C)C)NC(=O)[C@H](CCCCN)NC(=O)[C@H](C)NC(=O)[C@H](C)NC1=O,cell growth or viability,CCK-8,,3.79

# A few entries again:
Structure (SMILES),effect on,method,time,IC50 [µM]
CCCCc1ccc(S(=O)(=O)N2CC2C(=O)OC)cc1 (centres unmarked),cell growth or viability,MTT,48 h,36
CC[C@H](C)[C@@H]([C@@H](CC(=O)N1CCC[C@H]1[C@H](OC)[C@@H](C)C(=O)N[C@H](C)[C@@H](O)c1ccccc1)OC)N(C)C(=O)[C@@H](NC(=O)[C@H](C(C)C)N(C)C(=O)OCc1ccc(NC(=O)[C@H](CCCNC(N)=O)NC(=O)[C@@H](NC(=O)CCCc2cn(CC(=O)NCCCC[C@H]3NC(=O)[C@H](CCCCN)NC(=O)[C@H](CCCNC(N)=O)NC(=O)[C@H](Cc4ccc(O)cc4)NC(=O)[C@@H](NC(=O)[C@H](Cc4ccc5ccccc5c4)NC(=O)[C@H](CCCNC(=N)N)NC(=O)[C@@H](N)CCCNC(=N)N)CSSC[C@@H](C(=O)N[C@@H](CCCNC(=N)N)C(N)=O)NC(=O)[C@H](CCCNC(N)=O)NC(=O)[C@H](CCCNC(=N)N)NC(=O)[C@H](Cc4ccc(O)cc4)NC(=O)[C@@H]4CCCN4C3=O)nn2)C(C)C)cc1)C(C)C,cell growth or viability,CCK-8,48 h,3.98
